Measurements pooled from the literature.
A part holds a random share of what one study measured. Positions count from the first letter of the parent shown.

Sample 1 — read-out: peptide-MHC binding; molecule type: peptide; concentration: concentration not given
Target: HLA class I histocompatibility antigen, A alpha chain, allele A*25:01 (Homo sapiens, UniProt P04439)
Molecule | binding
QHAWPLPPL | inactive
NLFEIEWEE | inactive
FLYDRLAST | inactive
YQIEGAWRA | inactive
SLLHESTLK | inactive
QTDNDIWFW | inactive
LSDAIFDDL | inactive
EAEKQLQQY | inactive
NPLEIYQEI | inactive

Sample 2 — target: CCNB1, cyclin fold, Cln2 fusion (human); technique: yeast growth competition, sequencing; sample: yeast; notes: strong parent motif; reference: not given; reading: higher = stronger binding
Starting sequence: viral docking peptide; KGVKRKLFAEDSS; partner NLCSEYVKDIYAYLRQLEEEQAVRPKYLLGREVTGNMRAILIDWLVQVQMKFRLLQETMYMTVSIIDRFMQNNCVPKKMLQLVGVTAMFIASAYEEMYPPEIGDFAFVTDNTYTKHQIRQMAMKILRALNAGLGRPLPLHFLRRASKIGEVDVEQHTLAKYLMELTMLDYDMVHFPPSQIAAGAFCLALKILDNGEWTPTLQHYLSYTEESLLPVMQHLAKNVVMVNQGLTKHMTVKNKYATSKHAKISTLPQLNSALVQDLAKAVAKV
Change | normalised enrichment score
KGVKRKLSAEDSS [F8S] | -0.159
KGVKEKLFAEDSS [R5E] | 0.223
KFVKRKLFAEDSS [G2F] | 1.47
KGQKRKLFAEDSS [V3Q] | 0.0857
KGVKRKLFAEDNS [S12N] | 2.6
AGVKRKLFAEDSS [K1A] | 2.81
KGCKRKLFAEDSS [V3C] | 1.08
KGVKRKLFAEFSS [D11F] | 0.985
KDVKRKLFAEDSS [G2D] | 3.14
KGVKAKAFAEDSS [R5A L7A] | 0.132

Sample 3 — technique: RNA Bind-n-Seq; molecule type: RNA; sample: in vitro; concentration: 365 nM; reference: no-protein control; reading: higher = stronger binding
Target: RNA binding protein fox-1 homolog 2, RRM domain, GST-SBP tag (RBFOX2, Homo sapiens, UniProt O43251-10, residues 100-194)
Notes: natural RNA segment, single round, ends assumed
Shared flanks, not repeated: GGGAGUUCUACAGUCCGACGAUC … UGGAAUUCUCGGGUGCCAA
Target sequence (chain): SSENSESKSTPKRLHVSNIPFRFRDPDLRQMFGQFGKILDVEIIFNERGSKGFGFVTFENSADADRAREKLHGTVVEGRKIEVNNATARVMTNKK
Sequence | RBNS enrichment (R)
AGGACAAGGGCAGCCCCACCCCAUCCAGCCUGGGCUCCCCGCAGACCCUUGCUGCUCCCGUGGCCUGGACACGCUGGGGAGCUUCUCACACCUACCCCUACCGUCCAGCC | 0.277
GGCAGAGCAGGCUGCCCAGCCGAAGCGGGAAGGGCAUGUUGGGCAAGCUGCUGGAGCGACUGAUGUACAGUUGUUAUUUGUCUAUAAAUGGAGCUGUUUAUGGCAAUUUA | 0.895
GUAUAAGGCAUCCUAACUUACAAGAGUAACUUUCCAUGGACAUUUAACAUCCUUCCAAUUUUAUUCACAUAUAAUGGGAAAUUUUGAAUUGCCAGUUUGAAGACUGUUCU | 0.468
AAGAAUUUUCAAAAUUGGUUUGUUCAGUGUGGAGUAUAUUCAGCAGUAUUUUUGACAUUUUUCUUUAGAAAAAGGAAGAGCUAAAGGAAUUUUAUAAGUUUUGUUACAUG | 0.739
CUGGGGAAAGUGCAUUUGGCCAAAUGAAAUGGUAGUCAAGCCUAUUGCAACAAAGUUAGGAAGUUUGUUGUUUGUUUAUUAUAAACAAAAAGCAUGUGAAAGUGCACUUA | 1.42
GUCACCUGCCCAGAUCCCAGAAGGACCUCCUGAGCGAUGACUCAAGUGUCUCAGUCCACCUGAGCUGCCAUCCAGGGAUGCCAUCUGUGGGCACGCUGUGGGCAGGUGGG | 0.413
AGGUAGUUUUCUAUAGUAACUUGAUUAAUUUAGUCUUAAUCCAUUUGAAACUCUCUCUUCCUUUCUCUCUGCCUGUCCCUCUCCUUCUCCAUCUCACCCUCCCUCUCUCA | 0.813
AACUUGUUCACAUUGUUAAUUUCUGUCCAGAGACCUGAAACUGCUUAAGUAUGGGAACAGACUGAAAUGGUGUUUCAACCUGCAAGAGACAGAAGCAUAGACAAGUAUAU | 0.415

Sample 4 — target: UBE2A UBC core domain (UniProt P49459); technique: yeast two-hybrid; sample: yeast; notes: mostly zero background; reference: not given; reading: higher = stronger interaction
UniProt P49459, sequence (whole entry, looked up): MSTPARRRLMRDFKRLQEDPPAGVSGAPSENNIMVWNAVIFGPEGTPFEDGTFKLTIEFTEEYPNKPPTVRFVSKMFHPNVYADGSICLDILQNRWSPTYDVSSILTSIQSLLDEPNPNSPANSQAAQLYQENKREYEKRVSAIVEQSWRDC
B1: TRIM34 RING domain (UniProt Q9BYJ4); chain ILLNVQEEVTCPICLELLTEPLSLDCGHSLCRACITVSNKEAVTSMGGKSSCPVCGISYSFEHLQA
B2: RNF7 RING domain (UniProt Q9UBF6); chain AICRVQVMDACLRCQAENKQEDCVVVWGECNHSFHNCCMSLWVKQNNRCPLCQQDWVVQRIGK
B3: RMND5B RING domain (UniProt Q96G75); chain MKCWYHSVFACPILRQQTSDSNPPIKLICGHVISRDALNKLINGGKLKCPYCPMEQNPADGK
B4: RFPL3 RING domain (UniProt O75679); chain MAALFQEASSCPVCSDYLEKPMSLECGCTVCLKCINSLQKEPHGEDLLCCCCSMVSQRNKIRP
B5: RNF11 RING domain (UniProt Q9Y3C5); chain RDGSEKKIRECVICMMDFVYGDPIRFLPCMHIYHLDCIDDWLMRSFTCPSCMEPVDAALLSS
B6: PJA2 RING domain (UniProt O43164); chain DHTAIGQEQCCPICCSEYIKDDIATELPCHHFFHKPCVSIWLQKSGTCPVCRRHFPPAVIEA
B7: TRIM47 RING domain (UniProt Q96LD4); chain MDGSGPFSCPICLEPLREPVTLPCGHNFCLACLGALWPHRGASGAGGPGGAARCPLCQEPFPDGLQLR
B8: TRIM28 RING domain (UniProt Q13263); chain GAEALELLEHCGVCRERLRPEREPRLLPCLHSACSACLGPAAPAAANSSGDGGAAGDGTVVDCPVCKQQCFSKDIVE
B9: TRIM2 RING domain (UniProt Q9C040); chain VRQIDKQFLICSICLERYKNPKVLPCLHTFCERCLQNYIPAHSLTLSCPVCRQTSILPEKGV
B10: ARIH1 RING domain (UniProt Q9Y4X5); chain NTRSSAQDMPCQICYLNYPNSYFTGLECGHKFCMQCWSEYLTTKIMEEGMGQTISCPAHGCDILVDDNTVM
B11: RNF130 RING domain (UniProt Q86XS8); chain DKETDPDFDHCAVCIESYKQNDVVRILPCKHVFHKSCVDPWLSEHCTCPMCKLNILKALGIV
B12: MARCHF2 RING domain (UniProt Q9P0N8); chain RLLSTVIRALDTPSDGPFCRICHEGANGECLLSPCGCTGTLGAVHKSCLEKWLSSSNTSYCELCHTEFAVEKRPRPLTEWL
Molecule | lacZ reporter activity
AAQLLEEKLTCAICLGLYQDPVTLPCGHNFCGACIRDWWDRCGKACPECREPFPDGAELR (TRIM65 RING domain (UniProt Q6PJ69)) | 0
B1 (TRIM34 RING domain) | 0
B2 (RNF7 RING domain) | 0
B3 (RMND5B RING domain) | 0
B4 (RFPL3 RING domain) | 0
EIKDYKARLTCPCCNMRKKDAVLTKCFHVFCFECVKTRYDTRQRKCPKCNAAFGANDFHR (RNF20 RING domain (UniProt Q5VTR2)) | 0
B5 (RNF11 RING domain) | 0
KITELNPHLMCALCGGYFIDATTIVECLHSFCKTCIVRYLETNKYCPMCDVQVHKTRPLL (PCGF2 RING domain (UniProt P35227)) | 0
B6 (PJA2 RING domain) | 0
PLRRLQEEKLCKICMDRHIAVVFIPCGHLVTCKQCAEAVDRCPMCSAVIDFKQRVF (BIRC8 RING domain (UniProt Q96P09)) | 0
EDVLSKDAGECAICLEELQQGDTIARLPCLCIYHKGCIDEWFEVNRSCPEHPSD (ZNRF2 RING domain (UniProt Q8NHG8)) | 0
FLSKVEETFQCICCQELVFRPITTVCQHNVCKDCLDRSFRAQVFSCPACRYDLGRSYAMQ (UHRF1 RING domain (UniProt Q96T88)) | 0
B7 (TRIM47 RING domain) | 0
B8 (TRIM28 RING domain) | 0
B9 (TRIM2 RING domain) | 0
B10 (ARIH1 RING domain) | 0
B11 (RNF130 RING domain) | 0
B12 (MARCHF2 RING domain) | 0
GSEEEEIPFRCFICRQAFQNPVVTKCRHYFCESCALEHFRATPRCYICDQPTGGIFNPA (RNF113B RING domain (UniProt Q8IZP6)) | 0

Excerpt of the above (sample 1):
Molecule | binding
QHAWPLPPL | inactive
SLLHESTLK | inactive
NLFEIEWEE | inactive
QTDNDIWFW | inactive
